# Results collected from several papers.
# Lines come from different studies, so protocols differ. “And” joins repeats or separate records; there may be more than shown. Numbers after ± are the reported error.
# Sequence of UniProt Q8I5R7 (whole entry, looked up): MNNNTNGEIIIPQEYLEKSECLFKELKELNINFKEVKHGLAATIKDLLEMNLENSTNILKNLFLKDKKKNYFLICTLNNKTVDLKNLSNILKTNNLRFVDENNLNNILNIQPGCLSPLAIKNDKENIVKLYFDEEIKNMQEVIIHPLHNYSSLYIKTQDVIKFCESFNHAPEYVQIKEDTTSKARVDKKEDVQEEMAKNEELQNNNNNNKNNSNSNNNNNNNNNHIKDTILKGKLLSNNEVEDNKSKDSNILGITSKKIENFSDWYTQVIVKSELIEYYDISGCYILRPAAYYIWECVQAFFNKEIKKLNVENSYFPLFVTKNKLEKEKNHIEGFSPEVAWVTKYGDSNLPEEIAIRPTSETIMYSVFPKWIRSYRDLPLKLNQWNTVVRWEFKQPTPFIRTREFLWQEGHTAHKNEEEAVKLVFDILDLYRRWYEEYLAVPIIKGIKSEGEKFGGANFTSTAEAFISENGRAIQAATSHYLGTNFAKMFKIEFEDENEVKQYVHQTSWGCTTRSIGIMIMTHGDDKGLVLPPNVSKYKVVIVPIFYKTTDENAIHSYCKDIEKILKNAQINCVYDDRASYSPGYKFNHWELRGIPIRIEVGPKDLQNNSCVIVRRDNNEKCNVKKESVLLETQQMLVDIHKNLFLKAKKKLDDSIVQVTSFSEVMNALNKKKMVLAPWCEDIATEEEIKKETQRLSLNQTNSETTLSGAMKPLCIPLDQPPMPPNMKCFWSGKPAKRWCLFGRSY
# Sequence of UniProt Q09472 (whole entry, looked up): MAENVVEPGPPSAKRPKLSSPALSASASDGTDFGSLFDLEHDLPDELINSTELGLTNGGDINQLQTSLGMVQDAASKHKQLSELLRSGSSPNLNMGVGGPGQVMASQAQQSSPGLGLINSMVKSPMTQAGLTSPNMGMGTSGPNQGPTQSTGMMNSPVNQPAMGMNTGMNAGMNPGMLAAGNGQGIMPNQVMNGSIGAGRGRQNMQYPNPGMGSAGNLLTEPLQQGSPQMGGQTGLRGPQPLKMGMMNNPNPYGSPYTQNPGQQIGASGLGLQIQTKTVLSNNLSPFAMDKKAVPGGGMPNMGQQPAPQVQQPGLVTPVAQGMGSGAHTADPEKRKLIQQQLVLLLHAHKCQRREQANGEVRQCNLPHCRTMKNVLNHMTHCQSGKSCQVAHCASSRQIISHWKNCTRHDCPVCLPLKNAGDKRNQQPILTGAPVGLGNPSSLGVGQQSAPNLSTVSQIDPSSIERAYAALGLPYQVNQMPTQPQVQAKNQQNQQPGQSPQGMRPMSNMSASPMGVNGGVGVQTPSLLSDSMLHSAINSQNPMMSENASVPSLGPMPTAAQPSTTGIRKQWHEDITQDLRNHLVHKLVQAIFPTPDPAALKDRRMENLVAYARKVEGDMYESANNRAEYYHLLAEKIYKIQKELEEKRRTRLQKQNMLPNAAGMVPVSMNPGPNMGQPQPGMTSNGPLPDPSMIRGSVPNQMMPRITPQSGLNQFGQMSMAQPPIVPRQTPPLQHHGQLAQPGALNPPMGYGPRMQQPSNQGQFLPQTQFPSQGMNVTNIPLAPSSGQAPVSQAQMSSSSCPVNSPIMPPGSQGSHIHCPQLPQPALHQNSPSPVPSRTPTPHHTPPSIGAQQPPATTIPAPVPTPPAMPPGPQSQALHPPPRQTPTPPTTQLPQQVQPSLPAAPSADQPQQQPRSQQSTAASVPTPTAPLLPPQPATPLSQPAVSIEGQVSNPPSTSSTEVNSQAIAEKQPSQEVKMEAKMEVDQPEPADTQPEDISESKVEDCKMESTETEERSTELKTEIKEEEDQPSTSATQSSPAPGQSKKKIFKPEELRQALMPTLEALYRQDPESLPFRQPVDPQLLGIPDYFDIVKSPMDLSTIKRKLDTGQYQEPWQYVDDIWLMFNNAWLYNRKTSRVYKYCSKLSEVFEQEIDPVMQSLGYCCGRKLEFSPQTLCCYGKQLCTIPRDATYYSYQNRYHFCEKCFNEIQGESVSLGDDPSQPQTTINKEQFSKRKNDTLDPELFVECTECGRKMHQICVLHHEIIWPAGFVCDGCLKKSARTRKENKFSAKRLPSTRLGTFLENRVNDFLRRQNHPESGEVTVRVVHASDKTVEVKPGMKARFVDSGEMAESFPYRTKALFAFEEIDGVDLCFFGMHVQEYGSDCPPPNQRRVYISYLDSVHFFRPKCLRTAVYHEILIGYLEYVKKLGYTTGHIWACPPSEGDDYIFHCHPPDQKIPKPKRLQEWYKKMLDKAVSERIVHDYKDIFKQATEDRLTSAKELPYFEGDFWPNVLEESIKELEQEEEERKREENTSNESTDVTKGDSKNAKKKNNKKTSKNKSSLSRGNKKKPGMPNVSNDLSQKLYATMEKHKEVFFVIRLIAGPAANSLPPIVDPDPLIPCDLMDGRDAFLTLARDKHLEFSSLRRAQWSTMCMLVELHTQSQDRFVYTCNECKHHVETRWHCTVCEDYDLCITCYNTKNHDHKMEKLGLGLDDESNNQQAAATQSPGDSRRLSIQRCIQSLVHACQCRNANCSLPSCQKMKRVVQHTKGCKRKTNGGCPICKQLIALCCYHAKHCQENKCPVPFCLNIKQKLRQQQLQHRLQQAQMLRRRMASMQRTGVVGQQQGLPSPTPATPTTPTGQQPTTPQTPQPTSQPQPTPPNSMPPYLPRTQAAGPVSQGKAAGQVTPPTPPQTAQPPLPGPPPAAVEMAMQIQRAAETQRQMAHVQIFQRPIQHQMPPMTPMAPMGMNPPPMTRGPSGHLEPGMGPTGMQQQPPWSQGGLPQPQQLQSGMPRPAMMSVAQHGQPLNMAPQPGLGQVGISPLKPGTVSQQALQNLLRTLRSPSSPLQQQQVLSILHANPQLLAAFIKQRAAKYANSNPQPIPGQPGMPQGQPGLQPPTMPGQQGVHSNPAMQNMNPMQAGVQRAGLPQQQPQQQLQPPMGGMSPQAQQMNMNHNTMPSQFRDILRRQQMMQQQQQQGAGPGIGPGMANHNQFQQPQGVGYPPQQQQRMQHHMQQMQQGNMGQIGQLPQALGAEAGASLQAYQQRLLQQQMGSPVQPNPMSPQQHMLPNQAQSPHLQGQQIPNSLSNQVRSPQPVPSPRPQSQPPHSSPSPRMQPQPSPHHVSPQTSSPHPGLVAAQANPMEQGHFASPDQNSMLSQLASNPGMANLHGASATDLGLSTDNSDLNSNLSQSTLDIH
# Sequence of UniProt P51452 (whole entry, looked up): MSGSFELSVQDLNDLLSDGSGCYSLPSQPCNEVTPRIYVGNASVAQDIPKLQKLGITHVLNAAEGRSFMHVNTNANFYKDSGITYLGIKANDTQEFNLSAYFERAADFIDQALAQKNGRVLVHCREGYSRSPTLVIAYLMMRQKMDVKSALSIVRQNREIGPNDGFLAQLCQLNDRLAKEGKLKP
# Sequence of UniProt P09382 (whole entry, looked up): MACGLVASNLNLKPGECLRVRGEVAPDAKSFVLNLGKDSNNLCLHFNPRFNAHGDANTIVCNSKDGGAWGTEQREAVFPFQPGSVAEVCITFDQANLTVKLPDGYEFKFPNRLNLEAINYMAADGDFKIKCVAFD
# Sequence of UniProt P05230 (whole entry, looked up): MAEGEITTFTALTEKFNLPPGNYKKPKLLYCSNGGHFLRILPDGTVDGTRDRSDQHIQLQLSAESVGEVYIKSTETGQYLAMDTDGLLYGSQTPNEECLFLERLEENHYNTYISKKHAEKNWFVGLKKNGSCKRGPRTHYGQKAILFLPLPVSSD
# Sequence of UniProt O15392 (whole entry, unmodified, looked up): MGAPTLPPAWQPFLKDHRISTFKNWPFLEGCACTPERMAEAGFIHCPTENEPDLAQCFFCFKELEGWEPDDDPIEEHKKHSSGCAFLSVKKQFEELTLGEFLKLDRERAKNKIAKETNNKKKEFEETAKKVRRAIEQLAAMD
# Sequence of UniProt P40337 (whole entry, looked up): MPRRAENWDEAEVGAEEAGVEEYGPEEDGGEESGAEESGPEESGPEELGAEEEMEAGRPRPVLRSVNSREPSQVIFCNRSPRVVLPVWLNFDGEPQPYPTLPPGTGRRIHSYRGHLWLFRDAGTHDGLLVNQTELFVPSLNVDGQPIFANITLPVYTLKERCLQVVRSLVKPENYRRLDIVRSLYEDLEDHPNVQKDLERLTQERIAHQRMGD
# Sequence of UniProt Q9Y572 (whole entry, looked up): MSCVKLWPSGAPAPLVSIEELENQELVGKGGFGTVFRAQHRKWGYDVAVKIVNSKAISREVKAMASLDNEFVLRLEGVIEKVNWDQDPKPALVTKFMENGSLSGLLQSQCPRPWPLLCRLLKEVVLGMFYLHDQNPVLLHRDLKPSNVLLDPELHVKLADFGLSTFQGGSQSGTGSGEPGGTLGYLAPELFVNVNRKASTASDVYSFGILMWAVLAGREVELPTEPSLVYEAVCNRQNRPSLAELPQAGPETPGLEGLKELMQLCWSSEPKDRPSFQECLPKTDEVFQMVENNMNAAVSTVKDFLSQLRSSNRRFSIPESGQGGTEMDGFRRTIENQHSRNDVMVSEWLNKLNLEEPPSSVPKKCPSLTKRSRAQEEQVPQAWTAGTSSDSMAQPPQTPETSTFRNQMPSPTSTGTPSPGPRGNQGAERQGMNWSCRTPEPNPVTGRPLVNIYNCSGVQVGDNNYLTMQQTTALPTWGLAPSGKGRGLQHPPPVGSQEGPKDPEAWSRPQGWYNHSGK
# Sequence of UniProt P10997 (whole entry, looked up): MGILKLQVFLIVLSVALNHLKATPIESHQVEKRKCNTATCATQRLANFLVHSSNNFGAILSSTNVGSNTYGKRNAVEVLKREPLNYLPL
# Sequence of UniProt P02699 (whole entry, looked up): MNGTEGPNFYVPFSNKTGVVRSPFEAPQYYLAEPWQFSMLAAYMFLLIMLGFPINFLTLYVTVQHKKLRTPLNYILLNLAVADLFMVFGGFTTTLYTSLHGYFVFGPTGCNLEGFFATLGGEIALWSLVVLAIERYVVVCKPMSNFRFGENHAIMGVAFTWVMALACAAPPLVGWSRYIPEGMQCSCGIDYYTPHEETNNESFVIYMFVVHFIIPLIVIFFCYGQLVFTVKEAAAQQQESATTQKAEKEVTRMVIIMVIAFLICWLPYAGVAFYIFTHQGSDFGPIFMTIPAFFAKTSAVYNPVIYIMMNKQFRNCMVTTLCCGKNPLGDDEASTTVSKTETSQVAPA
SMILES,target,assay,test system,setting,quantity,result
CC(C)CC[C@@H]1NCCN([C@@H](CCC(C)C)C(=O)N2CCN([C@@H](CCC(N)=O)C(N)=O)C(=O)[C@@H]2C)C1=O,"Histone acetyltransferase p300, CH1 domain (EP300, Homo sapiens, UniProt Q09472)","binding, tryptophan fluorescence",,,Kd,0.16 ± 0.06 µM
COc1cc(C2CC(=O)Nc3nc(N)[nH]c(=O)c32)ccc1O (centres unmarked),"uncharacterized protein (Leishmania donovani, UniProt A0A3Q8IA09)",fluorometric titration,,"pH 8.0, 298 K",Kd,2.1 ± 0.3 µM
OC[C@H]1Oc2c(I)c(I)cc3c2[C@@H](OC3)[C@H]1O,"Galectin-9 (LGALS9, Homo sapiens, UniProt O00182)","cell-free assay, FP",,,Kd,> 1000 µM
CC[C@H](C)[C@H](NC(=O)[C@H](CC(=O)O)NC(=O)[C@H](CC(=O)O)NC(=O)[C@@H]1CCCN1C(=O)[C@H](CC(=O)O)NC(=O)[C@H](CC(C)C)NC(=O)[C@H](CCSC)NC(=O)[C@H](CC(C)C)NC(=O)[C@H](CC(=O)O)NC(=O)[C@H](CC(=O)O)NC(=O)[C@H](CCSC)NC(=O)[C@H](C)NC(=O)[C@H](CCC(N)=O)NC(=O)[C@H](CC(=O)O)NC(=O)[C@@H]1CCCN1C(=O)[C@H](CC(C)C)NC(=O)[C@@H]1CCCN1C(=O)[C@H](CC(=O)O)NC(=O)[C@H](CC(C)C)NC(=O)[C@@H](NC(=O)[C@H](CC(N)=O)NC(=O)[C@H](CC(N)=O)NC(=O)[C@H](CCC(=O)O)NC(=O)[C@@H]1CCCN1C(=O)[C@H](CC(C)C)NC(=O)[C@H](CC(C)C)NC(=O)[C@H](CCCCN)NC(=O)[C@H](Cc1c[nH]c2ccccc12)NC(=O)[C@H](CC(C)C)NC(=O)[C@H](CC(=O)O)NC(=O)[C@H](CC(=O)O)NC(=O)[C@H](Cc1ccccc1)NC(=O)[C@H](CC(=O)O)NC(=O)[C@H](CCC(=O)O)NC(=O)[C@H](CCC(N)=O)NC(=O)[C@H](CC(=O)O)NC(=O)[C@H](CC(C)C)NC(=O)[C@@H]1CCCN1C(=O)[C@@H]1CCCN1C(=O)[C@H](CCC(=O)O)NC(=O)[C@@H](N)C(C)C)C(C)C)C(=O)N[C@@H](CCC(=O)O)C(=O)N[C@@H](CCC(N)=O)C(=O)N[C@@H](Cc1c[nH]c2ccccc12)C(=O)N[C@@H](Cc1ccccc1)C(=O)N[C@@H](CC(=O)O)C(=O)N[C@@H](CCC(=O)O)C(=O)N[C@@H](CC(=O)O)C(=O)O,"Histone acetyltransferase p300, TAZ1 domain (EP300, Homo sapiens, UniProt Q09472)",fluorescence anisotropy,,"TAZ1 domain, together with: labelled p53 TAD peptide",Kd,0.038 ± 0.008 µM
CC(=O)N[C@@H]1[C@@H](O[C@@H]2O[C@H](C(=O)O)[C@@H](O[C@@H]3O[C@H](COS(=O)(=O)O)[C@@H](OS(=O)(=O)O)[C@H](O[C@@H]4O[C@H](C(=O)O)[C@@H](O[C@@H]5O[C@H](COS(=O)(=O)O)[C@@H](OS(=O)(=O)O)[C@H](O[C@@H]6O[C@H](C(=O)O)[C@@H](OS(=O)(=O)O)[C@H](OS(=O)(=O)O)[C@H]6OS(=O)(=O)O)[C@H]5NC(C)=O)[C@H](OS(=O)(=O)O)[C@H]4OS(=O)(=O)O)[C@H]3NC(C)=O)[C@H](OS(=O)(=O)O)[C@H]2OS(=O)(=O)O)[C@H](OS(=O)(=O)O)[C@@H](COS(=O)(=O)O)O[C@H]1N=[N+]=[N-],"FGF1 (Homo sapiens, UniProt P05230)","ligand displacement, FP",,,Kd,0.003 µM
NCCCC[C@H](NC(=O)[C@H](CC(N)=O)NC(=O)[C@H](CCCCNC(=O)[C@H](Cc1ccc(B(O)O)cc1)NC(=O)[C@H](Cc1ccc(O)cc1)NC(=O)[C@@H](N)Cc1ccc(B(O)O)cc1)NC(=O)[C@H](Cc1ccc(B(O)O)cc1)NC(=O)[C@H](Cc1ccc(O)cc1)NC(=O)[C@@H](N)Cc1ccc(B(O)O)cc1)C(=O)N[C@@H](CO)C(=O)N[C@@H](Cc1ccc(O)cc1)C(N)=O,HIV-1 RRE IIB RNA,"binding, EMSA",,,Kd,4.6 µM
CN(C)c1ccc(-c2cc3cc(I)ccc3o2)cn1,"Islet amyloid polypeptide, aggregated (IAPP, Homo sapiens, UniProt P10997)","binding, saturation radioligand binding",,"3 h, room temperature",Kd,0.00831 µM
CC1=C(/C=C/C(C)=C\C=C\C(C)=C\C=O)C(C)(C)CCC1,"Rhodopsin, apoprotein (opsin) (RHO, Bos taurus, UniProt P02699)",Trp fluorescence quenching,opsin membranes,titration up to 1 µM,Kd,0.0576 µM
CN1C(=O)C(O)(C(=O)O)Oc2ccccc21 (centres unmarked),"Dihydroxy-acid dehydratase, chloroplastic (DHAD, Arabidopsis thaliana, UniProt Q9LIR4)",microscale thermophoresis,,,Kd,2.79 µM
CC[C@H](C)[C@H](NC(=O)[C@@H]1CCCN1C(=O)[C@@H](NC(=O)[C@H](C)N)C(C)C)C(=O)N[C@@H](C)C(=O)N[C@@H](CCC(N)=O)C(=O)N[C@@H](CCCCN)C(=O)N[C@@H](CO)C(=O)N[C@@H](CCC(=O)O)C(=O)N1CCC[C@H]1C(=O)N[C@@H](Cc1c[nH]cn1)C(=O)N[C@@H](CO)C(=O)N[C@@H](CC(C)C)C(=O)N[C@@H](CO)C(=O)N[C@@H](CO)C(=O)O,"BIRC5 (Homo sapiens, UniProt O15392, H80W/K62Y)",ITC,,"pH 7.5, 25 °C, K62Y/H80W double mutant",Kd,19.8 ± 2.3 µM
CC[C@H](C)[C@H](NC(=O)[C@H](CCCCN)NC(=O)[C@H](CCCCN)NC(=O)[C@@H](NC(=O)[C@H](CCC(=O)O)NC(=O)[C@H](CCC(=O)O)NC(=O)[C@H](CCC(=O)O)NC(=O)[C@H](C)NC(=O)[C@H](CC(C)C)NC(=O)[C@H](CC(=O)O)NC(=O)[C@H](CC(C)C)NC(=O)CNC(=O)[C@H](CCCNC(=N)N)NC(=O)[C@H](CC(C)C)NC(=O)[C@H](CO)NC(=O)CNC(=O)CNC(=O)CNC(=O)CCCC[C@@H]1SC[C@@H]2NC(=O)N[C@@H]21)C(C)C)C(=O)N[C@@H](CC(C)C)C(=O)N[C@@H](CC(=O)O)C(=O)N[C@@H](CCC(=O)O)C(=O)N[C@H](C(=O)N[C@H](C(=O)N[C@@H](CCCCN)C(=O)N[C@@H](CC(=O)O)C(=O)O)C(C)C)[C@@H](C)CC,Fab B11 antibody (human),"binding, biolayer interferometry",,together with: biotinylated peptide on tips,Kd,0.16 ± 0.004 µM
CC#Cc1cc2c3c(c1)O[C@H](CO)[C@H](O)[C@@H]3OC2,"Galectin-1 (LGALS1, Homo sapiens, UniProt P09382)","ligand displacement, FP",,,Kd,840 µM
C[C@H](NC(=O)[C@H](C)NC(=O)[C@H](Cc1ccc(O)cc1)NS(=O)(=O)c1cccc2c(N(C)C)cccc12)C(=O)N[C@@H](CCC(N)=O)C(=O)N[C@@H](CCCCN)C(=O)N[C@@H](Cc1c[nH]cn1)C(=O)N[C@@H](Cc1ccccc1)C(=O)N[C@@H](Cc1c[nH]cn1)C(=O)O,"Rho guanine nucleotide exchange factor TIAM1, PDZ domain (TIAM1, Homo sapiens, UniProt Q13009)",fluorescence anisotropy,,"25 °C, together with: dansylated peptide 1 µM",Kd,> 250 µM
CC1=CC(C)=[N+]2C1=Cc1ccc(CCC(=O)NCCOCCOCCOCCOCC(=O)N[C@H](C(=O)N3C[C@H](O)C[C@H]3C(=O)NCc3ccc(-c4scnc4C)cc3)C(C)(C)C)n1[B-]2(F)F,"von Hippel-Lindau disease tumor suppressor, with elongin B/C (VHL, Homo sapiens, UniProt P40337)","binding, TR-FRET",,"90 to 300 min, total binding",Kd,~0.003 µM
Cc1cc2nc(NC(=O)C3CC3)sc2cc1Oc1ccc(F)c(NC(=O)Cc2cccc(C(F)(F)F)c2)c1,"RIPK3 (Homo sapiens, UniProt Q9Y572)","binding, competition with immobilised ligand",,,Kd,> 5 µM
O=C(Nc1cccc(-c2csc(Nc3ccc(C(=O)O)c(O)c3)n2)c1)c1ccccc1,"Cystathionine gamma-synthase 1, chloroplastic (CGS1, Arabidopsis thaliana, UniProt P55217)","binding, microscale thermophoresis",,,Kd,1.78 µM
CC[C@H](C)[C@H](NC(=O)[C@H](CCCCN)NC(=O)[C@H](CCCCN)NC(=O)[C@@H](NC(=O)[C@H](CCC(=O)O)NC(=O)[C@H](CCC(=O)O)NC(=O)[C@H](CCC(=O)O)NC(=O)[C@H](CO)NC(=O)[C@H](CC(C)C)NC(=O)[C@H](CC(=O)O)NC(=O)[C@H](CC(C)C)NC(=O)[C@H](C)NC(=O)[C@H](CCCNC(=N)N)NC(=O)[C@H](CC(C)C)NC(=O)[C@H](CO)NC(=O)CNC(=O)CNC(=O)CNC(=O)CCCC[C@@H]1SC[C@@H]2NC(=O)N[C@@H]21)C(C)C)C(=O)N[C@@H](CC(C)C)C(=O)N[C@@H](CC(=O)O)C(=O)N[C@@H](CCC(=O)O)C(=O)N[C@H](C(=O)N[C@H](C(=O)N[C@@H](CCCCN)C(=O)N[C@@H](CC(=O)O)C(=O)O)C(C)C)[C@@H](C)CC,Fab B11 antibody (human),"binding, biolayer interferometry",,together with: biotinylated peptide on tips,Kd,2.4 ± 0.26 µM
[64Cu+2].c1cnc(CNCc2ccc(CN3CCCN4CCNCCCN(CC4)CC3)cc2)nc1,CXCR4,,"NOD/SCID mouse, U87 and U87-stb-CXCR4 xenografts, pancreas","iv, 60 min, ex vivo",tissue uptake,1.61 ± 0.19 %ID/g
Cc1cc(N2CCC(CO)(C3CC3)C2=O)cc(C(=O)NCc2cc(F)cc(-c3cnn(C)c3)c2)n1 (centres unmarked),"Proline--tRNA ligase (Plasmodium falciparum, UniProt Q8I5R7)","binding, microscale thermophoresis",,,Kd,0.243 µM and 0.201 µM
O=C(O)C(=O)N1CCc2cccc(F)c2C1,"DUSP3 (Homo sapiens, UniProt P51452)","binding, isothermal titration calorimetry",,,Kd,2000 ± 1000 µM
